# Measured values collected from several papers.
# Parts stem from different laboratories: compare values within a part only. Several values in a cell are separate wells, animals, samples, runs or records.
# UniProt P42680, sequence (whole entry, looked up): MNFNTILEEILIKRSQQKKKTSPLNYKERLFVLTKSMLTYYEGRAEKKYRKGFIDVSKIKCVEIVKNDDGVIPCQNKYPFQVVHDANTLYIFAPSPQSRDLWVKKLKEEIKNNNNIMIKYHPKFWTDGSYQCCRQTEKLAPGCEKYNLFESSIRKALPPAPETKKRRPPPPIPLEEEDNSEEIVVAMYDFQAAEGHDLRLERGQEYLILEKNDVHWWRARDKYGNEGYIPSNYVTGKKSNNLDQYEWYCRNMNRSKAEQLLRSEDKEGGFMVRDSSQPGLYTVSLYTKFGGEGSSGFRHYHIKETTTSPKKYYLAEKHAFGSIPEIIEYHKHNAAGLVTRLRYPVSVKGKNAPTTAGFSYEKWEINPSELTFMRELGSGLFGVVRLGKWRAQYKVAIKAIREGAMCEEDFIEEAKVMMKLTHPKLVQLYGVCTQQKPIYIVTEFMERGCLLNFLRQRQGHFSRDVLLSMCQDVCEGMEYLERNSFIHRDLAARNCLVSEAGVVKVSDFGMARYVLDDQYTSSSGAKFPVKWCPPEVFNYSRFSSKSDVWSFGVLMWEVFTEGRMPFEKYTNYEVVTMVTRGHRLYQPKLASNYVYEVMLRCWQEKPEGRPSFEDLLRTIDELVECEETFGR
# UniProt Q9UQM7, sequence (whole entry, looked up): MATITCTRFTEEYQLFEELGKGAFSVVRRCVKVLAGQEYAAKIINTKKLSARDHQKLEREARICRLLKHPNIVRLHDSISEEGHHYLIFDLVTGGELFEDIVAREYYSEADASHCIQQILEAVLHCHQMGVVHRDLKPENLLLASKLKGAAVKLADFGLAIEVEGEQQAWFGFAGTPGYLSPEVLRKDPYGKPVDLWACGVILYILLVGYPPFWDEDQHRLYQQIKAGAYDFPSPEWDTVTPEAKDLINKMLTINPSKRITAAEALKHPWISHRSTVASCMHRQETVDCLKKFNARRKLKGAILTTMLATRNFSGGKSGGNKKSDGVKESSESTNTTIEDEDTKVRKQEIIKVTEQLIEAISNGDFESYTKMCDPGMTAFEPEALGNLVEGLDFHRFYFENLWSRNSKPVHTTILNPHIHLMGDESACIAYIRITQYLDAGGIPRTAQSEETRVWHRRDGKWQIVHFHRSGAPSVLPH
# UniProt Q9Y5S2, sequence (whole entry, looked up): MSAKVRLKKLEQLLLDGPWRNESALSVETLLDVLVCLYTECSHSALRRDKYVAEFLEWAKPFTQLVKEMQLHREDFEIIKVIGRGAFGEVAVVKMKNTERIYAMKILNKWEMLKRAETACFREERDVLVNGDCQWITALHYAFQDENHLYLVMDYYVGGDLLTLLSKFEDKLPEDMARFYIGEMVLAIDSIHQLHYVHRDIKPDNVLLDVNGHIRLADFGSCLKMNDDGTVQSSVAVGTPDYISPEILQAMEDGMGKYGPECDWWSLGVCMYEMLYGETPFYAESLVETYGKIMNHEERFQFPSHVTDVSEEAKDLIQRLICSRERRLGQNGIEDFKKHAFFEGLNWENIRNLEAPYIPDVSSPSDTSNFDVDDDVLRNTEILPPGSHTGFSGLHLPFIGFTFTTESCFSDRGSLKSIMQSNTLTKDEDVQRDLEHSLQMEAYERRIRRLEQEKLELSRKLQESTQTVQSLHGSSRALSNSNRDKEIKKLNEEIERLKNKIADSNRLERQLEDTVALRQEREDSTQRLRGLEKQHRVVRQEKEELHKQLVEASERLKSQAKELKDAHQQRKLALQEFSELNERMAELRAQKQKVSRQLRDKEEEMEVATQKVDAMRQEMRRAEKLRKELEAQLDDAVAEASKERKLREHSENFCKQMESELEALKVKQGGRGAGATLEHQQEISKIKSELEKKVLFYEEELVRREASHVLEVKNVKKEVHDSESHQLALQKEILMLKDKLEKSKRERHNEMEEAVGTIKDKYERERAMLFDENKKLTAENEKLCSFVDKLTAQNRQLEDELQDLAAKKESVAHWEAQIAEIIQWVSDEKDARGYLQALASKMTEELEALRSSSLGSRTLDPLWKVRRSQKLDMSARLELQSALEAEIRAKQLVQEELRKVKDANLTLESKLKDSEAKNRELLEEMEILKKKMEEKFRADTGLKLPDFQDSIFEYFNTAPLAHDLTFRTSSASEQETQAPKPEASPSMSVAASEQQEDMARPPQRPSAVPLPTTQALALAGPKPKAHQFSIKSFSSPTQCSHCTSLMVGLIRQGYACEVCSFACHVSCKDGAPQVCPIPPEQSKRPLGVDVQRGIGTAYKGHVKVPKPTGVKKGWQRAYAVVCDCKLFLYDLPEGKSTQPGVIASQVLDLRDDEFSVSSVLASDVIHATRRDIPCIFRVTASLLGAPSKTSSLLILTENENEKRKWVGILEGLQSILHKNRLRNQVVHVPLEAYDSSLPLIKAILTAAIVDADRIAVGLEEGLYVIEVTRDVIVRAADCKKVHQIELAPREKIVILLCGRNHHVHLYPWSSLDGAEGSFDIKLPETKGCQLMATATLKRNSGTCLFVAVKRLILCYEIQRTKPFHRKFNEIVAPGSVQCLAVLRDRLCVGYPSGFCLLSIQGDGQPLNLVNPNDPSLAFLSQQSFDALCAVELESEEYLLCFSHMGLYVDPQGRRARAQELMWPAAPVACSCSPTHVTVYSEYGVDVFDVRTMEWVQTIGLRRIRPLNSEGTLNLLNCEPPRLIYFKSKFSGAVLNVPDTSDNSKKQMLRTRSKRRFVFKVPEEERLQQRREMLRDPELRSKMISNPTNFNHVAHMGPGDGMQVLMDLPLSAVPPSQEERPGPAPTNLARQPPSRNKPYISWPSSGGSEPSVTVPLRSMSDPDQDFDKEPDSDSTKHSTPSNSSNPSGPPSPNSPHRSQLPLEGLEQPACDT

# Block 1 — cell line: A-375; tested at: 100 µM; time: 36 h
Structure (SMILES),viability
CCO[C@H]1O[C@@H]2O[C@@]3(C)CC[C@H]4[C@H](C)CC[C@@H]([C@H]1C)[C@@]24OO3,43%
CCOP(=S)(OCC)Oc1cc(C)nc(C(C)C)n1,11.8%
N=C(N)NN,124%
C[C@@H]1O[C@@H](O[C@H]2C[C@@H](O)[C@]3(CO)[C@H]4[C@H](O)C[C@]5(C)[C@@H](C6=CC(=O)OC6)CC[C@]5(O)[C@@H]4CC[C@]3(O)C2)[C@H](O)[C@H](O)[C@H]1O,29.9%
CN1C(=O)COc2c(C(=O)NC3CN4CCC3CC4)cc(Cl)cc21 (stereo not shown),96%

# Other studies, line by line
Compound,target or system,assay,test system,setting,how to read,quantity,result
CN[C@@H]1C[C@H]2O[C@@](C)([C@@H]1OC)n1c3ccccc3c3c4c(c5c6ccccc6n2c5c31)C(=O)NC4,"TEC (Homo sapiens, UniProt P42680)","enzyme activity, inhibitor",,0.5 µM,baseline: control,remaining activity,91.1% and 106%
Cc1cc(Cl)cc(C(=O)NCCC2=NOC(CS(C)(=O)=O)C2)c1NC(=O)c1cc(Br)nn1-c1ncccc1Cl (stereo not shown),,,"human, microsomes or S9","2 µM, 0.5 h",,remaining compound,35%
O=c1[nH]c2ccccc2n1C1CCN(Cc2ccc(-c3[nH]c4cc5ncnc5cc4nc3-c3ccccc3)cc2)CC1,"CDC42BPB (Homo sapiens, UniProt Q9Y5S2)",enzyme activity,,0.5 µM,,remaining activity,101%
CCOc1ccccc1N1CCN(Cc2cc(F)ccc2F)CC1,,,"human, microsomes or S9","2 µM, 0.5 h",,remaining compound,43.7%
NC(=O)CC[C@@H]1NC(=O)[C@H](Cc2ccccc2)NC(=O)[C@H](Cc2ccc(O)cc2)NC(=O)[C@@H](N)CSSC[C@@H](C(=O)N2CCC[C@H]2C(=O)N[C@@H](CCCN=C(N)N)C(=O)NCC(N)=O)NC(=O)[C@H](CC(N)=O)NC1=O,"CAMK2A (Homo sapiens, UniProt Q9UQM7)","enzyme activity, inhibitor",,10 µM,,inhibition,1%

# Repeated from above (block 1):
Structure (SMILES),viability
N=C(N)NN,124%
